Experimental data of several laboratories.
Protocols differ between the studies behind these lines. ± gives the spread as reported.

CN(C)C(=O)C(NC(=O)c1ccccc1-c1ccc(C(F)(F)F)cc1)c1cccc(C(F)(F)F)c1 (centres unmarked)  IC50 (KHYG-1 with Ba/F3-MICA cells; NKG2D-mediated cell killing, inhibitor; 6 h): 3 ± 1.1 µM
C[C@H]1C(OCCCCCCCCCC[P+](c2ccccc2)(c2ccccc2)c2ccccc2)O[C@@H]2O[C@@]3(C)CCC4[C@H](C)CCC1[C@]42OO3 (some centres unmarked)  IC50 (HUVEC; cell viability, MTT; 72 h): 0.33 ± 0.0209 µM
O=C(C[P+]([Au-][Cl])(c1ccccc1)c1ccccc1)[O][Ti+2][O]C(=O)C[P+]([Au-][Cl])(c1ccccc1)c1ccccc1.c1cc[cH-]c1.c1cc[cH-]c1  IC50 (A498; cell viability, XTT; 72 h): 3.2 µM
CCOC12C(O)C(OC)C3(O)CC(C1C3OC(=O)c1ccccc1)C13C(OC)CCC4(COC)CN(CC)C1C2C(OC)C43 (centres unmarked)  IC50 (NCI-H460; cell growth or viability, MTT): 12.8 µM
CNC(=O)c1cc(Oc2ccc(NC(=O)c3ccc(-c4ccc(OC(=O)CCC(=O)OC5OC6OC7(C)CCC8C(C)CCC(C5C)C68OO7)cc4)cn3)cc2)ccn1 (centres unmarked)  IC50 (L02; cell growth or viability, MTT; 72 h): 46 µM
CCN1CC2(COC)CCC(OC)C34C5CC6C(OC)CC(O)(C(CC23)C14)C5C6OC(=O)c1ccccc1 (centres unmarked)  IC50 (NCI-H460; cell growth or viability, MTT): 23.4 µM
CCOC(=O)[C@H]1Cc2c(cc([N+](=O)[O-])cc2[N+](=O)[O-])[C@H](O)[C@]12C(=O)Nc1ccccc12  IC50 (T98G; cell growth or viability, MTT; 24 h): > 50 µM
CC1=CC(C)=[N+]2C1=Cc1ccc(CCC(=O)NCC3C[NH][Pt]([Cl])([Cl])[NH]3)n1[B-]2(F)F (centres unmarked)  IC50 (CP.5 single cells in 3D Matrigel; cytotoxicity, CellTiter-Glo; 1 days, pre-grown 1 day): 186 ± 47.2 µM
C1CCN(C2CCNCC2)CC1.CCCC(CCC)C(=O)[O][Pt]([OH])([Cl])[Cl].CCCCN  IC50 (BXPC-3; cell growth or viability): 4.43 µM
C=C1C2CC3(C1O)C1CC4C5(C)CCC(O)C4(C1N(CC)C5)C3CC2O (centres unmarked)  IC50 (HBE; cell growth or viability, MTT): 28.8 µM
CNC(=O)C(NC(=O)c1ccccc1-c1ccc(C(F)(F)F)cc1)c1cccc(C(F)(F)F)c1 (centres unmarked)  IC50 (KHYG-1 with Ba/F3-MICA cells; NKG2D-mediated cell killing, inhibitor; 6 h): ~40 µM
CC1N=C(CCCCCCCCCCC2=CC(CCCCCCCCCCC3=NC(C)C(O)CC3)C3CCCN3C2)CCC1O (centres unmarked)  IC50 (Vero; cytotoxicity, Neutral Red): > 23.8 µg/mL
[Cl][Au].[Se]=c1n(C2CCCCC2)ccn1C1CCCCC1  IC50 (human ovarian cancer cells; cell viability, MTT; 72 h): 2.5 ± 0.6 µM
CNC(=O)c1cc(Oc2ccc(NC(=O)c3cc(-c4cccc(COC(=O)CCC(=O)OC5OC6OC7(C)CCC8C(C)CCC(C5C)C68OO7)c4)ccn3)cc2)ccn1 (centres unmarked)  IC50 (L02; cell growth or viability, MTT; 72 h): 64.5 µM
Oc1c(Cl)cc(Cl)cc1-c1[nH]c(Cl)c(Cl)c1Cl  IC50 (MRC5; cell growth or viability, resazurin; 24 h): 0.15 µg/mL
O=C(Cc1ccc2ccccc2c1)N[C@H](Cc1ccc(OP(=O)(O)O)cc1)C(=O)N[C@H](Cc1ccccc1)C(=O)N[C@H](Cc1ccccc1)C(=O)N[C@H](Cc1ccc(OP(=O)(O)O)cc1)C(=O)O  IC50 (T98G; cell growth or viability, MTT): 360 µg/mL
F[P-](F)(F)(F)(F)F.OCP(CO)CO.OCP(CO)CO.OCP(CO)CO.OCP(CO)CO.[Cu+]  IC50 (LoVo; cell growth or viability, MTT; 72 h): 0.23 µM
COC(=O)CC[C@@H](NC(=O)[C@@H](Cc1ccc(OP(=O)(O)O)cc1)NC(=O)[C@@H](Cc1ccccc1)NC(=O)[C@@H](Cc1ccccc1)NC(=O)Cc1ccc2ccccc2c1)C(=O)OC  IC50 (CHOK; cell viability; 72 h): > 200 µM
CN[C@](C)(C[18F])C(=O)O  tracer uptake (MDA-MB-468 tumour model; host not given, heart; 2 h, tumour-bearing): 2.8 %ID/g
Cc1cc(C)c(-n2c[n+](-c3c(C)cc(C)cc3C)c3c2-c2cccc4cccc-3c24)c(C)c1.[Cl][Pd-]([Cl])[CH2]C=Cc1ccccc1  IC50 (NTERA2; cell growth or viability; 72 h, 3D culture): 31.5 µM
C[C@H]1C(OCCCCCCCCC[P+](c2ccccc2)(c2ccccc2)c2ccccc2)O[C@@H]2O[C@@]3(C)CCC4[C@H](C)CCC1[C@]42OO3 (some centres unmarked)  IC50 (J82; cell growth or viability, MTT; 72 h): 0.0919 µM
CC[C@H](C)[C@@H]1NC(=O)[C@H](CCCNC(=N)N)NC(=O)C[C@@H](c2cccc3ccccc23)NC(=O)[C@@H]2CSSC[C@H](NC(=O)C[C@@H](c3cccc4ccccc34)NC(=O)[C@H](CCCNC(=N)N)NC(=O)[C@@H]3CCCN3C(=O)[C@@H]3CCCN3C1=O)C(=O)N[C@@H](Cc1ccccc1)C(=O)N1CCC[C@H]1C(=O)N[C@@H](CC(=O)O)C(=O)N[C@@H](CC(=O)O)C(=O)N[C@@H](Cc1ccccc1)C(=O)N2  IC50 (NCI-H1975 (EGFR L858R/T790M); cell growth): 4.22 µM
CCC(C)C1OC(=O)C(NC(=O)c2cccc(NC=O)c2O)C(C)OC(=O)C(C(C)CC)OC(=O)C(C)(C)C(O)C(Cc2ccccc2)OC1=O (centres unmarked)  IC50 (HCT-8/T taxol-resistant; cell viability, CCK-8; 72 h): 1.04 ± 0.0178 µM
CCN1CC2(COC)CCC(O)C34C5CC6C(OC)CC(O)(C5C6OC(C)=O)C(C(OC)C23)C14 (centres unmarked)  IC50 (NCI-H460; cell growth or viability, MTT): 18.5 µM
[Cl][Os][Ge]([Cl])([Cl])[Cl].c1ccc(P(c2ccccc2)c2ccccc2)cc1.c1ccccc1  IC50 (Dalton's lymphoma cells; cell viability, MTT; 24 h): 1.7 ± 0.06 µM
O=C(/C=C/c1ccccc1)c1cc2ccccc2oc1=O  IC50 (Vero; cell viability; 48 h): 119 µg/mL
Cc1cc(C)c(N2CCN(c3c(C)cc(C)cc3C)C2=[Se])c(C)c1.[Cl][Au]  IC50 (human ovarian cancer cells; cell viability, MTT; 72 h): 2.3 ± 0.7 µM
O=C1CC2(C1)C(=O)[O][Pt]1([Cl])([O]C(=O)C(Cl)Cl)([NH][C@@H]3CCCC[C@H]3[NH]1)[O]C2=O  IC50 (HUVEC; cell growth or viability, MTT): 56.5 µM
O=S(=O)([O][Pt]([O]S(=O)(=O)C(F)(F)F)([PH](c1ccccc1)(c1ccccc1)c1ccc[cH-]1)[PH](c1ccccc1)(c1ccccc1)c1ccc[cH-]1)C(F)(F)F.[Fe+2]  IC50 (T98G; cell growth, MTT; 24 h): 32.5 µM
CCN1CC2(COC)CCC(O)C34C5CC(C(CO)OC)CC5C(=O)C(C(OC)C23)C14 (centres unmarked)  IC50 (NCI-H460; cell growth or viability, MTT): 28.4 µM
CC(C)c1cccc(C(C)C)c1-n1c[n+](-c2c(C(C)C)cccc2C(C)C)c2c1-c1cccc3cccc-2c13.[Cl][Pd-]([Cl])[CH2]C=Cc1ccccc1  IC50 (NTERA2; cell growth or viability, MTT; 72 h): 2 µM
C[C@@H](O)[C@H](NC(=O)[C@H](CCCNC(=N)N)NC(=O)[C@H](CCCNC(=N)N)NC(=O)[C@H](CCCNC(=N)N)NC(=O)[C@@H]1CCCN1C(=O)[C@@H](N)CO)C(=O)N1CCC[C@H]1C(=O)N[C@@H](CO)C(=O)N1CCC[C@H]1C(=O)N[C@@H](CCCNC(=N)N)C(=O)N[C@@H](CCCNC(=N)N)C(=O)N[C@@H](CCCNC(=N)N)C(=O)N[C@@H](CCCNC(=N)N)C(=O)N[C@@H](CO)C(=O)N[C@@H](CCC(N)=O)C(=O)N[C@@H](CO)C(=O)N1CCC[C@H]1C(=O)N[C@@H](CCCNC(=N)N)C(=O)N[C@@H](CCCNC(=N)N)C(=O)N[C@@H](CCCNC(=N)N)C(N)=O  IC50 (BT-474; cell viability, CellTiter-Blue; 24 h, serum-free medium): > 100 µM
C[C@H]1C(OCCCCCCCCCCC[P+](c2ccccc2)(c2ccccc2)c2ccccc2)O[C@@H]2O[C@@]3(C)CCC4[C@H](C)CCC1[C@]42OO3 (some centres unmarked)  IC50 (J82; cell growth or viability, MTT; 72 h): 0.0874 µM
CC[C@H]1OC(=O)[C@H](C(C)C)NC(=O)[C@H](C)OC(=O)[C@@H](C(C)C)NC(=O)[C@@H](C(C)C)OC(=O)[C@H](C(C)C)NC(=O)[C@H](C)OC(=O)[C@@H](C(C)C)NC(=O)[C@@H](C(C)C)OC(=O)[C@H](C(C)C)NC(=O)[C@H](C)OC(=O)[C@@H](C(C)C)NC1=O  IC50 (human Astrocyte; cell growth or viability): 9.1 µM
CC1=C(C(=O)Nc2ccc(F)cc2)C(c2ccccc2Cl)NC(=S)N1 (centres unmarked)  IC50 (PMA-differentiated THP-1; cell viability, MTT; 24 h): 791 ± 58.6 µg/mL
Cc1cccc([C@H](NC(=O)c2cnccc2-c2ccc(C(F)(F)F)cc2)C(=O)N(C)C)c1  IC50 (KHYG-1 with Ba/F3-MICA cells; NKG2D-mediated cell killing, inhibitor; 6 h): 0.4 ± 0.1 µM
CCN1CC2(COC)CCC(OC)C34C5CC6C(OC)CC(O)(C5C6OC(=O)c5ccccc5)C(C(OC)C23)C14 (centres unmarked)  IC50 (HBE; cell growth or viability, MTT): 34.1 µM
Cc1cc(C)c(-n2ccn(-c3c(C)cc(C)cc3C)c2=[Se])c(C)c1.[Cl][Au]  IC50 (LoVo; cell growth or viability, MTT; 72 h): 1.7 µM
OC[C@H]1[C@@H](O)[C@@H](O)CN1Cc1ccc(I)cc1  IC50 (U2OS; cell growth or viability, MTS; 72 h): 169 µM
COCC12CCC(OC)C34C5CC6(O)C(O)C5C(O)(C(O)C6OC)C(C(OC)C13)C4N(C)C2 (centres unmarked)  IC50 (NCI-H460; cell growth or viability, MTT): 13.7 µM
Cc1ccnc(-c2cc(C)ccn2)c1.[C-]#[O+].[C-]#[O+].[C-]#[O+].[Re+]  IC50 (KB 3-1; cell viability): 4.3 ± 1.6 µM
C[C@@H]1CCC2[C@@H](C)[C@@H](OCCC[P+](c3ccccc3)(c3ccccc3)c3ccccc3)O[C@@H]3O[C@@]4(C)CCC1[C@@]23OO4 (some centres unmarked)  IC50 (HUVEC; cell viability, MTT; 72 h): 0.434 ± 0.0206 µM
CC(C)OC(=O)C(n1cccn1)n1cccn1.F[P-](F)(F)(F)(F)F.[Cu+].c1ccc(P(c2ccccc2)c2ccccc2)cc1  IC50 (BCPAP; cell growth or viability, MTT; 72 h): 11.4 µM
C[C@H]1[C@H](OCCc2ccc(O)cc2)O[C@@H]2O[C@@]3(C)CC[C@H]4[C@H](C)CC[C@@H]1[C@@]24OO3  IC50 (C3PV; cell growth or viability, MTT; 24 h): 1.76 µM
